Assay results from different studies.
Numbers after ± are the reported error.
Organism: HIV-1

| SMILES | assay | system | setting | IC50 [nM] |
| --- | --- | --- | --- | --- |
| Cc1nc(C(CN)NC(=O)C(=O)Nc2ccc3c(c2)OCO3)sc1CO (centres unmarked) | pseudovirus infection | TZM-bl |  | > 53000 |
| Cc1nc(C(NC(=O)c2ccc(-c3ccc(Cl)cc3)[nH]2)C2CCCCN2)sc1CO (mixture of isomers) | Env pseudovirus infection | TZM-bl, subtype B SC422661.8 |  | 600 ± 100 |
| CC[C@H](C)[C@H](NC(=O)[C@H](CC(C)C)NC(=O)[C@H](CCC(=O)O)NC(=O)[C@H](CCC(=O)O)NC(=O)[C@@H](NC(=O)[C@H](CCCCN)NC(=O)[C@H](CCCCN)NC(=O)[C@@H](NC(=O)[C@H](Cc1ccc(O)cc1)NC(=O)[C@H](CCC(=O)O)NC(=O)[C@H](CCC(=O)O)NC(=O)[C@@H](NC(=O)[C@H](CCCCN)NC(=O)[C@H](CCCCN)NC(=O)[C@H](CC(=O)O)NC(=O)[C@H](Cc1c[nH]c2ccccc12)NC(=O)[C@H](CCC(=O)O)NC(=O)[C@H](CCC(=O)O)NC(=O)[C@H](Cc1c[nH]c2ccccc12)NC(=O)[C@@H](NC(=O)[C@@H](N)CCSC)[C@@H](C)O)[C@@H](C)CC)[C@@H](C)O)[C@@H](C)CC)C(=O)N[C@@H](CCCCN)C(=O)N[C@@H](CCCCN)C(=O)N[C@@H](CO)C(=O)O | virus neutralization | SF162 |  | 11.3 ± 2.2 |
| Cc1cn([C@@H]2C[C@@H](O)[C@H](CO)O2)c(=O)[nH]c1=O | viral replication, MTT | MT4 |  | > 100000 |
| CSCC[C@@H]1NC(=O)[C@H](Cc2ccc(O)cc2)NC(=O)[C@@H](NC(=O)[C@H](CC(C)C)NC(=O)[C@@H](N)CCCNC(=N)N)CSSC[C@@H](C(=O)N2CCC[C@H]2C(=O)O)NC(=O)[C@@H]2CCCN2C(=O)[C@H](CC(C)C)NC(=O)[C@H](C(C)C)NC1=O | HIV-1 Env cell-cell fusion | CHO-WT and MT2 cells | 48 h, 37 °C | 6570 ± 250 |
| Cc1cn([C@H]2C=C[C@@H](CO)O2)c(=O)[nH]c1=O | viral replication, MTT | MT4 |  | 650 ± 30 |
| CCCOn1cc(CC(=O)Nc2ccccc2Cl)c2ccccc21 | viral replication | HEK293T |  | 490 ± 110 |
| C#C[C@@]1(CO)C=C[C@H](n2cc(C)c(=O)[nH]c2=O)O1 | viral replication, MTT | MT4 |  | 260 ± 10 |
| C=C(C)[C@]12C[C@@H](COC(=O)c3ccccc3)[C@@]34OC5(O[C@@H]1[C@@H]3[C@@H]1O[C@]1(COC(=O)c1ccccc1)[C@@H](O)[C@@]1(O)[C@H]4[C@H]([C@H](C)[C@@H]1OC(=O)c1ccccc1)[C@H](C)CCCCCC[C@H]5OC(=O)c1ccccc1)O2 | viral replication, inhibitor | MT-4 cells, NL4-3 NanoLuc-sec | 72 h | > 1 |
| Cc1cn([C@H]2C[C@H](N=[N+]=[N-])[C@@H](CO)O2)c(=O)[nH]c1=O | virus neutralization | MN |  | 194.1 ± 1.6 |
| COc1cc(/C=C/C(=O)CC(=O)/C=C/c2ccc(OCCOC(=O)CCC(NC(=O)c3ccc(NCc4cnc5nc(N)[nH]c(=O)c5n4)cc3)C(=O)O)c(OC)c2)ccc1O (centres unmarked) | viral replication, MTT | MT-4, IIIB |  | > 63 |

For quick reference, copied from above:
| SMILES | assay | system | setting | IC50 [nM] |
| --- | --- | --- | --- | --- |
| CCCOn1cc(CC(=O)Nc2ccccc2Cl)c2ccccc21 | viral replication | HEK293T |  | 490 ± 110 |
| Cc1nc(C(NC(=O)c2ccc(-c3ccc(Cl)cc3)[nH]2)C2CCCCN2)sc1CO (mixture of isomers) | Env pseudovirus infection | TZM-bl, subtype B SC422661.8 |  | 600 ± 100 |
